Published values gathered from unrelated publications.
Compare with care: the assays were run in different laboratories. Values joined by “and” are separate records of one study, mostly repeats; a detail may differ. ± gives the spread as reported.

`C[C@H]1C[C@H]2CSC(N)=N[C@@]2(c2nc(NC(=O)c3ccc(OC(F)F)cn3)cs2)CO1`: “percent change from baseline” -45.2% (item: Aβ1-40; healthy adults, plasma; 5 mg once daily, day 2; baseline: placebo).
Under “log2 fold change”, `Cc1n[nH]c2ccc(-c3cc(OC[C@@H](N)Cc4ccccc4)cnc3-c3ccoc3)cc12` is recorded as -0.756 (kinase binding, competitor, MIB/MS competition, item: PKH2; Candida albicans cell lysate; 10 µM; baseline: DMSO).
Under “best overall response”, `COc1ncc(-c2nc3c(n2C(C)C)[C@H](c2ccc(Cl)cc2)N(c2cc(Cl)cn(C)c2=O)C3=O)c(OC)n1` is recorded as 60% (International Working Group criteria; human acute myeloid leukemia patients; oral, 250 mg, response TF, high-dose, recommended dose for expansion).
`Cn1cc(Nc2nccc(-c3ccc4c(c3)CN(C3COC3)CC[C@H]4NC(=O)c3cn(C(C)(C)C)nn3)n2)cn1` — result for “pathway activation z-score”: 2.24 (item: Ethanol Degradation II; splenic B cells, Mus musculus; 30 mg/kg, with: IgD activation; baseline: vehicle, direction not given).
`C[C@]12CC[C@@H]3c4ccc(O)cc4CC[C@H]3[C@@H]1CC[C@@H]2O` has a mRNA level of 0.0135 and 0.0125 (RT-qPCR, item: CO; Arabidopsis thaliana ING1:FLAG seedlings; dose not given, 6 h (ZT12), unit not given; baseline: TUB2).
The EC90 of `Oc1ccc2c(c1)OC[C@]1(O)Cc3cc(O)c(O)cc3[C@H]21` is reported as 49900 nM (Toxoplasma gondii; parasite growth, luciferase reporter; HFF, tachyzoite; 72 h).
`COc1cc2nccc(Oc3ccc(NC(=O)NC4CC4)c(Cl)c3)c2cc1C(N)=O` gave a Hill coefficient of 0.313 (item: Tie-2; human, serum; PK/PD model, point estimate).
Under “HbA1c at end of treatment”, `N[C@@H](CC(=O)N1CCn2c(nnc2C(F)(F)F)C1)Cc1cc(F)c(F)cc1F` is recorded as 8.5 ± 0.16% (ZDF rat; 10 mg/kg/day, 6 weeks).
Under “pAKT change from baseline”, `CO[C@H]1CC[C@H](N2C(=O)CNc3ncc(-c4ccc(C(C)(C)O)nc4)nc32)CC1` is recorded as -46.9% (flow cytometry; stimulated monocytes, human, blood; 30 mg single dose, 1.5 h, median; baseline: baseline).
Under “regulatory T-cell change”, `NC(=O)c1cnc2[nH]ccc2c1N[C@@H]1[C@@H]2CC3C[C@H]1C[C@@](O)(C3)C2` is recorded as -0.48% (flow cytometry; Japanese healthy men, blood; oral, 100 mg twice daily, 72 h after day 7 dose; baseline: baseline).
`CC(=O)Oc1cc2c(s1)CCN(C(C(=O)C1CC1)c1ccccc1F)C2` (stereo not shown) — result for “patients with inhibition above threshold”: 0% (platelet aggregation, light transmission aggregometry; human patients, platelet-rich plasma; dose not given, 1 h, inhibition threshold 90%, with: ADP 5 µM).
`CC(=O)OC[C@H]1O[C@@H]([S-])[C@H](OC(C)=O)[C@@H](OC(C)=O)[C@@H]1OC(C)=O.CCP(CC)CC.[Au+]` has an EC50 of 380 nM (Toxoplasma gondii; bradyzoite growth; glutamine-induced bradyzoites, glucose-free medium).
`CN[C@@H]1COc2c(S(=O)(=O)NC(=O)Nc3c4c(cc5c3CCC5)CCC4)cnn2C1` has an inhibition of 98.5% (item: IL-18; human participants, whole blood ex vivo; 900 mg twice daily, multiple doses, 24 h, IL-18, circulating, adjusted for, with: LPS/ATP; baseline: baseline).
For `COc1nnc2ccc(N3CCC(c4ccc(OCCN5CCN(C)C(=O)[C@H]5C)cc4)CC3)nn12`, “time above HEXIM1 threshold” read 1.7 h (human patients; 2 mg once daily, above baseline variability).
With `COc1ccc2c(c1)CC[C@@H]1[C@@H]2CC[C@]2(C)[C@@H](NCCCCCCN3C(=O)C=CC3=O)CC[C@@H]12` the distance travelled was 25 m (open field test; humanized UT (+/h+) mice, SAH model; dose not given).
For `CC(C)n1c(C2CCNCC2)nc2c([N+](=O)[O-])c(Br)c(Br)cc21`, “maximum blast reduction” read -100% (patients with AML, bone marrow; all dose levels).
For `CN(C)C(=O)c1cc2cnc(Nc3ccc(N4CCNCC4)cn3)nc2n1C1CCCC1`, “GSEA enrichment score” read 0.513 (RNA-seq GSEA, item: HALLMARK_CHOLESTEROL_HOMEOSTASIS; MB002 tumour; concentration not given, in vivo; baseline: vehicle, direction not given).
`CC1(C)CCC(c2ccc(Cl)cc2)=C(CN2CCN(c3ccc(C(=O)NS(=O)(=O)c4ccc(N[C@H](CCN5CCOCC5)CSc5ccccc5)c(S(=O)(=O)C(F)(F)F)c4)cc3)CC2)C1` has an EC50 of 31 nM (cell killing; primary canine neoplastic T cells, dog 19; 24 h).
For `Cc1ccc([C@@H]2O[C@H](CO)[C@@H](O)[C@H](O)[C@H]2O)cc1Cc1ccc(-c2ccc(F)cc2)s1`, “change in fasting plasma glucose” read -8 mg/dL (Japanese type 2 diabetes patients; 25 mg, day 2; baseline: day 1).
`Cc1noc(C)c1-c1cc(C(O)(c2ccccn2)c2ccccn2)c2nc(C3CC3)[nH]c2c1` gave a maximum induction of 41.4% (item: HEXIM1 expression; human patients; dose not given, day 8, 192 h).
Under “log2 fold change”, `N#Cc1ccc2c(-c3ccncc3)c(-c3ccc(F)cc3)nn2c1` is recorded as -4.72 (kinase binding, competitor, MIB/MS competition, item: YCK2; Candida albicans cell lysate; 10 µM; baseline: DMSO).
`Cc1nn(-c2nc3c(F)cc(F)cc3s2)c(O)c1C(c1ccc(C(F)(F)F)cc1)c1c(C)nn(-c2nc3c(F)cc(F)cc3s2)c1O` has a pancreas weight of 0.203 g and 0.133 g and 0.164 g and 0.216 g and 0.184 g (mouse, cerulein-induced acute pancreatitis; 25 mg/kg).
`O=C(COc1ccc(Cl)cc1)NC12CC(c3nnc([C@H]4C[C@@H](OC(F)(F)F)C4)o3)(C1)C2` — result for “CHAC1 mRNA change”: -54.9% (healthy human, PBMC; 45 mg once daily, day 14, 4 h post-dose, median, with: sodium arsenite ex vivo; baseline: baseline).
`O=C(OC(C(F)(F)F)C(F)(F)F)N1CCN(Cc2cccc(Oc3ccccc3)c2)CC1`: “tracer distribution volume” 10.6 mL/cm3 (PET; rhesus monkey, striatum; intravenous, 0.01 mg/kg, pretreatment blocking, with: [18F]T-401).
`CCO`: “maximum change in systolic blood pressure” -10.6 ± 8.89 mmHg (supine; concentration not given, 0 to 4 h; baseline: baseline).
`COc1ccccc1[C@H](Cn1c(=O)n(C(C)(C)C(=O)O)c(=O)c2c(C)c(-c3ncco3)sc21)OC1CCOCC1` — result for “blood Glucose level”: 93.9 ± 8.37 mg/dL (human; 20 mg, post-treatment).
`Cn1cc([C@H]2C[C@H]3CSC(N)=N[C@@]3(c3ccc(F)cc3F)CO2)cn1` — result for “brain Aβ40 level”: 3.01 ng/g (item: Aβx-40; wild-type mouse, brain; subcutaneous, 10 mg/kg, 9 h).
`O=[N+]([O-])c1cc2c3ccccc3ccc2c2ccccc12`: “plasma cytokine levels” “no effect” (ELISA, item: inflammatory cytokines; rats, plasma; intramammary injection, dose not given, 24 h).
Under “patients with inhibition above threshold”, `CSCCNc1nc(SCCC(F)(F)F)nc2c1ncn2[C@@H]1O[C@H](COP(=O)(O)OP(=O)(O)C(Cl)(Cl)P(=O)(O)O)[C@@H](O)[C@H]1O` is recorded as 2.6% (platelet aggregation, light transmission aggregometry; human patients, platelet-rich plasma; dose not given, 4 to 6 h, inhibition threshold 90%, with: ADP 5 µM).
The necrotic area of `COc1ccc(C2=N[C@@H](c3ccc(Cl)cc3)[C@@H](c3ccc(Cl)cc3)N2C(=O)N2CCNC(=O)C2)c(OC(C)C)c1` is reported as 8.8% and 8.6% and 11.9% and 7.1% and 13.2% (histology; Dmd C3333Y mice, tibialis anterior; dose not given).
`COc1cc2cc(-c3ccc(CC(=O)Nc4cc(C(C)(C)C(F)(F)F)no4)cn3)cnc2cc1OC`: “best overall response CR” 0% (RECIST v1.1; human RET-altered solid tumours; dose not given, phase I parts A and B).
`CC[C@@H]1[C@H](F)C(=O)N[C@@H]1COc1nccc2cc(C(N)=O)c(OC)cc12` has an inhibition of -25.6% (ATP-site probe binding, ActivX profiling, item: MAP2K1, MAP2K2; THP-1 cell lysate; 0.01 mM, Lys2 site).
Under “complete response rate”, `Nc1ncnc2c1ncn2[C@H]1C[C@@H]2OP(=O)(O)OC[C@H]3O[C@@H](n4cnc5c(N)ncnc54)C[C@@H]3OP(=O)(O)OC[C@H]2O1` is recorded as 30% (BALB/c mouse CT26 tumour; iv, 1 mg/kg days 9,12,15).
With `Cn1cc(Nc2nc(N)nc(-c3cccc(-n4ccc5cc(C6CC6)cc(F)c5c4=O)c3CO)n2)cn1` the inhibition was 79.4% (CD63 upregulation, anti-IgE-induced; human, multiple ascending dose, whole blood basophils ex vivo; 50 mg twice daily, day 14, 8 h).
For `C=Cc1c(C)c2cc3nc(c(CC(=O)O)c4[nH]c(cc5nc(cc1[nH]2)C(C)=C5CC)c(C)c4C(=O)O)[C@@H](CCC(=O)O)[C@@H]3C`, the PD-L1+ cells was 1.94% and 2% and 2.03% (flow cytometry; mouse, 4T1 tumour-bearing; dose not given, 1 h).
For `N#Cc1ccc2c(c1)[C@H]1CCCN(C(=O)c3ccc4[nH]cnc4c3)[C@H]1C2`, the HOMA-IR change was 1 mmol/L × mU/L (human, Phase II trial; 80 mg once daily, day 28, adjusted mean; baseline: baseline).
Under “mean fold change”, `CCN(Cc1nc2c(N)nc3cc(-c4cc[nH]n4)ccc3c2[nH]1)C(C)=O` is recorded as 2.2 (immunohistochemistry, item: MPO+ TANs; patients with advanced solid tumours, injected tumour lesions; dose not given, monotherapy; baseline: baseline).
`C[C@H](Oc1ccc(Br)cc1-c1ccon1)C(=O)O` has a latency change of 93.7% (muscle velocity recovery cycles; human, tibialis anterior muscle; 1200 mg single dose, 3.5 h post-dose, frequency ramp, first response at 15 Hz).
`O=C(O)CNC(=O)Cc1ccccc1` has a sarcomere length of 1.72 µm (ventricular cardiomyocytes, C57BL/6 mouse; dose not given, 0.664 s).
`C=CCn1c(=O)c2cnc(Nc3ccc(N4CCN(C)CC4)cc3)nc2n1-c1ccc2c(n1)[C@@](O)(CC)CC2` — result for “tumour growth inhibition”: 49.9% (AN3-CA xenograft, BALB/c nude mice; oral, 80 mg/kg, day 12, once daily x 15).
Under “delta delta Ct”, `COc1ccc(-c2cncc(N[C@@H](C)c3cccc(NC(=O)c4cncc(C)c4)c3)n2)cc1OC` is recorded as -1.09 (item: rno-miR-382-5p; rat SU5416/hypoxia model, lung; dose not given, unit not given; baseline: SU5416/hypoxia vehicle).
`CC(C)[C@H](NC(=O)[C@H](Cc1ccc(O)cc1)NC(=O)[C@H](Cc1ccc(O)cc1)NC(=O)[C@@H]1CCCN1C(=O)[C@H](CCC(=O)O)NC(=O)[C@H](CCC(=O)O)NC(=O)[C@H](Cc1c[nH]c2ccccc12)NC(=O)[C@@H]1CCCN1C(=O)[C@@H](NC(=O)[C@H](CCC(N)=O)NC(=O)c1ccc2c(c1)C(=O)OC21c2ccc(O)cc2Oc2cc(O)ccc21)C(C)C)C(=O)N[C@H](C(=O)N[C@@H](CCCCN)C(=O)N[C@@H](CCCCN)C(=O)N[C@@H](CO)C(=O)N[C@@H](CO)C(=O)NCC(=O)NCC(N)=O)C(C)C`: “share of responses” 0% (added benefit of NERVE; human head and neck surgery, nerves; 500 mg, very much added benefit; baseline: white light).
`CCCCCN1C[C@H](O)[C@@H](O)[C@H](O)[C@@H]1CO`: “number of increased sphingolipids” 1 (mouse Hexb-/-, liver; 30 mg/kg/day; baseline: untreated Hexb-/- mice).
Under “log2 fold change”, `N#Cc1ccn2c(-c3ccncc3)c(-c3ccc(F)cc3)nc2c1` is recorded as -0.438 (kinase binding, competitor, MIB/MS competition, item: AKL1; Candida albicans cell lysate; 10 µM; baseline: DMSO).
`O=C1Nc2cc3[nH]nc(-c4ccncc4)c3cc2CN1Cc1ccccc1`: “complete response, best response” 0% (RECIST v1.1; human, relapsed or refractory advanced solid tumours; intravenous, 0.45 mg/kg, pooled schedules).
For `OC(CCN1CCCCC1)(c1ccccc1)C1CC2C=CC1C2` (stereo not shown), “Change in alpha power, EEG, Fz/Cz” read 30.4% (resting-state EEG; healthy elderly humans; oral, 2 mg, eyes open, LS mean; baseline: baseline).
The inhibition of `Oc1ccc(Br)cc1C=NCCN1CCOCC1` is reported as 28.7% (nitric oxide scavenging; 160 µM).
Under “log2 fold change”, `c1ccc(-c2n[nH]cc2-c2ccnc3ccccc23)nc1` is recorded as 1.43 (kinase binding, competitor, MIB/MS competition, item: CKA2; Candida albicans cell lysate; 10 µM; baseline: DMSO).
For `CC(C)NCC(O)c1ccc(O)c(O)c1` (stereo not shown), the sarcomere length was 1.63 µm (ventricular cardiomyocytes, C57BL/6 mouse; dose not given, 0.256 s).

Some of these lines once more:
For `C=Cc1c(C)c2cc3nc(c(CC(=O)O)c4[nH]c(cc5nc(cc1[nH]2)C(C)=C5CC)c(C)c4C(=O)O)[C@@H](CCC(=O)O)[C@@H]3C`, the PD-L1+ cells was 1.94% and 2% and 2.03% (flow cytometry; mouse, 4T1 tumour-bearing; dose not given, 1 h).
For `Cc1ccc([C@@H]2O[C@H](CO)[C@@H](O)[C@H](O)[C@H]2O)cc1Cc1ccc(-c2ccc(F)cc2)s1`, “change in fasting plasma glucose” read -8 mg/dL (Japanese type 2 diabetes patients; 25 mg, day 2; baseline: day 1).
Under “complete response rate”, `Nc1ncnc2c1ncn2[C@H]1C[C@@H]2OP(=O)(O)OC[C@H]3O[C@@H](n4cnc5c(N)ncnc54)C[C@@H]3OP(=O)(O)OC[C@H]2O1` is recorded as 30% (BALB/c mouse CT26 tumour; iv, 1 mg/kg days 9,12,15).
